Results pooled from the literature.
Several values in a cell are separate wells, animals, samples, runs or records. Numbers after ± are the reported error.
CatSper channel complex: CatSper channel complex (Homo sapiens, UniProt Q7RTX7+Q86XQ3+Q8NEC5+Q96P56)
PSMB6: Proteasome subunit beta type-6 (PSMB6, Homo sapiens, UniProt P28072)

SMILES	target	test	system	conditions	IC50
CC(C)C[C@H](NC(=O)[C@H](CC(N)=O)NC(=O)[C@H](CC(C)C)NC(=O)[C@@H](NC(=O)[C@@H](NC(=O)[C@@H]1CCCN1C(=O)[C@H](CCCNC(=N)N)NC(=O)[C@H](CCCCN)NC(=O)[C@@H]1CCCN1C(=O)[C@H](CCCNC(=N)N)NC(=O)[C@@H]1CCCN1C(=O)[C@@H]1CCCN1C(=O)[C@H](CCCNC(=N)N)NC(=O)[C@H](CCCNC(=N)N)NC(=O)[C@H](CCCNC(=N)N)NC(=O)[C@H](CCC(N)=O)NC(=O)[C@H](CCCNC(=N)N)NC(=O)[C@H](CCCNC(=N)N)NC(=O)[C@H](CCCCN)NC(=O)[C@H](CCCCN)NC(=O)[C@H](CCCNC(=N)N)NC(=O)CN)[C@@H](C)O)[C@@H](C)O)C(=O)N[C@@H](Cc1ccccc1)C(=O)N1CCC[C@H]1C(=O)N[C@@H](CCC(N)=O)C(=O)N[C@H](C(=O)N1CCC[C@H]1C(=O)N[C@@H](CCCNC(=N)N)C(=O)N[C@@H](CO)C(=O)N[C@@H](CCC(N)=O)C(=O)N[C@@H](CC(=O)O)C(=O)N[C@H](C(N)=O)[C@@H](C)O)C(C)C	Mitogen-activated protein kinase 1 (Mapk1, Rattus norvegicus, UniProt P63086)	inhibitor			179 ± 18 µM
O=c1[nH]sc2ccccc12	Histone deacetylase 9 (HDAC9, Homo sapiens, UniProt Q9UKV0)	enzyme activity, inhibitor			> 10 µM
O=C(O[C@@H]1Cc2c(O)cc(O)cc2O[C@@H]1c1ccc(O)cc1)c1cc(O)c(O)c(O)c1	Sucrase-isomaltase, intestinal (Si, Rattus norvegicus, UniProt P23739)	enzyme activity, inhibitor			84.2 µM
CN(C)C(=O)c1ccc([C@H]2C[C@@]3(C)[C@@H](CC[C@@]3(O)C(F)(F)C(F)(F)F)[C@@H]3CCC4=CC(=O)CCC4=C32)cc1	Progesterone receptor (PGR, Homo sapiens, UniProt P06401)	reporter gene, antagonist, luciferase			~0.001 µM
C/C=C/C(=O)Nc1ccc2nc(NCCCCCN(C)C)nc(NCCCCCCN(C)C)c2c1	PHD finger protein 19, Tudor and PHD domains (Homo sapiens, UniProt Q5T6S3)	methyl-lysine binding, TR-FRET			> 100 µM
Nn1c(SCC(=O)N2CCC(=C3c4ncccc4CCc4cc(Cl)cc(Br)c43)CC2)nnc1-c1ccccc1	Protein farnesyltransferase (Homo sapiens, UniProt P49354+P49356)	enzyme activity, inhibitor			40 µM
C#CCSc1nc(Nc2cccc(Cl)c2)c(C#N)c(-c2ccccc2)n1	Lysine-specific histone demethylase 1A (KDM1A, Homo sapiens, UniProt O60341)	enzyme activity, inhibitor, fluorescence			> 64 µM
CC(C)(C)NCCCNC(=O)c1ccnc(C(F)(F)F)c1	PHD finger protein 19 (Homo sapiens, UniProt Q5T6S3)	methyl-lysine reader binding, inhibitor, AlphaScreen			> 100 µM
C[C@@H]1O[C@@H](NNC(=O)Nc2ccc(S(N)(=O)=O)cc2)[C@H](O)[C@H](O)[C@H]1O	Carbonic anhydrase 1 (CA1, Homo sapiens, UniProt P00915)	enzyme activity, inhibitor			32 µM
CSCC[C@H](NC(=O)[C@H](Cc1c[nH]c2ccccc12)NC(=O)CNC(=O)[C@H](Cc1ccc(O)cc1)NC(=O)[C@H](C)NC(=O)[C@H](CCC(=O)O)NC(=O)[C@H](CCC(=O)O)NC(=O)[C@H](CCC(=O)O)NC(=O)[C@H](CCC(=O)O)NC(=O)[C@H](CCC(=O)O)NC(=O)[C@@H](CCC(=O)O)NC(=O)CNC(=O)C(CNCCN)CNCCN)C(=O)N[C@@H](CC(=O)O)C(=O)N[C@@H](Cc1ccccc1)C(N)=O	Gastrin/cholecystokinin type B receptor (CCKBR, Homo sapiens, UniProt P32239)	ligand displacement, radioligand		cell membranes	0.00504 µM
CCn1c(=N)n(CC(O)c2ccc(Br)cc2)c2ccccc21 (centres unmarked)	CatSper channel complex	calcium influx, inhibitor, FLIPR	human sperm	added: 3 µM progesterone	19 ± 3 µM
O=C(NC[C@@H](Cc1ccc(F)cc1)N1CCCCC1)C1(c2ccc(Cl)cc2)CC1	Transient receptor potential cation channel subfamily A member 1 (TRPA1, Homo sapiens, UniProt O75762)	calcium signal			> 10 µM
CC[C@H](C)[C@H](NC(=O)CNC(=O)[C@H](CC(=O)O)NC(=O)[C@H](CO)NC(=O)C=Cc1c[nH]cn1)C(=O)N[C@@H](Cc1ccccc1)C(=O)N[C@H](C(=O)N[C@@H](CC(=O)O)C(=O)N[C@@H](CO)C(=O)N[C@@H](Cc1ccc(O)cc1)C(=O)N[C@@H](CO)C(=O)N[C@@H](CCCNC(=N)N)C(=O)N[C@@H](Cc1ccc(O)cc1)C(=O)N[C@@H](CCCNC(=N)N)C(=O)N[C@@H](CCCCN)C(=O)N[C@@H](CCC(N)=O)C(=O)N[C@@H](CCSC)C(=O)N[C@@H](C)C(=O)N[C@H](C(=O)N[C@@H](CCCCN)C(=O)N[C@@H](CCCCN)C(=O)N[C@@H](C)C(=O)N[C@@H](CC(C)C)C(=O)N[C@@H](C)C(=O)N[C@@H](C)C(=O)N[C@H](C(=O)N[C@@H](CC(C)C)C(=O)NCC(=O)N[C@@H](CCCCN)C(=O)N[C@@H](CCCNC(=N)N)C(=O)N[C@@H](Cc1ccc(O)cc1)C(=O)N[C@@H](CCCCN)C(=O)N[C@@H](CCC(N)=O)C(=O)N[C@@H](CCCNC(=N)N)C(=O)N[C@H](C(=O)N[C@@H](CCCCN)C(=O)N[C@@H](CC(N)=O)C(=O)N[C@@H](CCCCN)C(N)=O)C(C)C)C(C)C)C(C)C)[C@@H](C)O	Vasoactive intestinal polypeptide receptor 2 (VIPR2, Homo sapiens, UniProt P41587)	ligand displacement, radioligand			> 1 µM
O=C(NC1=Nc2ccccc2C2=NCCN12)c1cccnc1	Phosphatidylinositol 4,5-bisphosphate 3-kinase catalytic subunit beta isoform (PIK3CB, Homo sapiens, UniProt P42338)	enzyme activity, inhibitor, radiometric			0.192 µM
CCOc1ccc(NS(=O)(=O)c2ccc(C)c(C(=O)N3CCOC(c4ccccc4)C3)c2)cc1 (centres unmarked)	Sodium channel protein type 5 subunit alpha (SCN5A, Homo sapiens, UniProt Q14524)	ion current, inhibitor, patch clamp			24.8 µM
C=C(NC(=O)C(=C)NC(=O)c1csc(C2=NC3c4csc(n4)C4NC(=O)c5csc(n5)C(C(C)(O)C(C)O)NC(=O)C5CSC(=N5)C(=CC)NC(=O)C(C(C)O)NC(=O)c5csc(n5)C3(CC2)NC(=O)C(C)NC(=O)C(=C)NC(=O)C(CCSC)NC(=O)C(C(C)CC)NC2C=Cc3c(C(C)O)cc(nc3C2O)C(=O)OC4C)n1)C(N)=O (centres unmarked)	PSMB6	caspase-like activity, inhibitor	purified human 20S proteasome	37 °C, 15 min preincubation, added: Ac-Nle-Pro-Nle-Asp-AMC	0.14 ± 0.01 µM
Cc1cc(N2CC[C@@](C#N)(C3(C)CC3)C2=O)cc(C(=O)NCc2cc(F)cc(-c3cnn(C)c3)c2)n1	Rho-associated protein kinase 1 (ROCK1, Homo sapiens, UniProt Q13464)	enzyme activity, inhibitor			> 10 µM
CCC(C)C(=O)NC1CCN(C(=O)c2ccc(NC(=O)NC34CC5CC(C)(CC(C)(C5)C3)C4)cc2)CC1 (centres unmarked)	Bifunctional epoxide hydrolase 2 (EPHX2, Homo sapiens, UniProt P34913)	enzyme activity, inhibitor			0.00045 µM
O=C(Nc1ccc(-c2nc(-c3ccccc3)cs2)cc1)C1CCN(Cc2ccc(F)cc2F)CC1	Bifunctional epoxide hydrolase 2 (Ephx2, Rattus norvegicus, UniProt P80299)	enzyme activity, inhibitor, fluorescence		pH 7.4, with preincubation	0.0441 µM
CC(=O)Nc1ccc(S(=O)(=O)N2CCN(c3nc4cc(Cl)ccc4o3)CC[C@H]2C)cc1	Orexin receptor type 2 (HCRTR2, Homo sapiens, UniProt O43614)	calcium signal, antagonist, fluorescence			4.89 µM
C=C(NC(=O)C(=C)NC(=O)c1csc(C2=NC3c4csc(n4)C4NC(=O)c5csc(n5)C(C(C)(O)C(C)O)NC(=O)C5CSC(=N5)C(=CC)NC(=O)C(C(C)O)NC(=O)c5csc(n5)C3(CC2)NC(=O)C(Cc2c[nH]c3ccccc23)NC(=O)C(=C)NC(=O)C(C)NC(=O)C(C(C)CC)NC2C=Cc3c(C(C)O)cc(nc3C2O)C(=O)OC4C)n1)C(N)=O (centres unmarked)	PSMB6	caspase-like activity, inhibitor	purified 20S proteasome	15 min preincubation, 37 °C, added: Ac-Nle-Pro-Nle-Asp-AMC substrate	> 0.19 µM
O=C(CCCCCCNCc1ccc(F)cc1)NO	Histone deacetylase 8 (HDAC8, Homo sapiens, UniProt Q9BY41)	enzyme activity, inhibitor, fluorescence			1.7 µM
N=C(N)NCCC[C@@H]1NC(=O)[C@H](Cc2c[nH]c3ccccc23)NC(=O)[C@H](CCCNC(=N)N)NC(=O)[C@H](Cc2c[nH]c3ccccc23)NC(=O)[C@H](CCCNC(=N)N)NC(=O)[C@H](Cc2c[nH]c3ccccc23)NC(=O)[C@H](CCCNC(=N)N)NC(=O)[C@H](Cc2c[nH]c3ccccc23)NC(=O)[C@H](CCCNC(=N)N)NC(=O)[C@H](Cc2c[nH]c3ccccc23)NC(=O)[C@H](CCCNC(=N)N)NC(=O)[C@H](Cc2c[nH]c3ccccc23)NC1=O	RAC-alpha serine/threonine-protein kinase (AKT1, Homo sapiens, UniProt P31749)	enzyme activity, inhibitor			1.26 µM
Nc1nc(-c2cccc(Br)c2)cs1	Capsid scaffolding protein, protease domain (assemblin) (Human cytomegalovirus, UniProt P16753)	protease activity, inhibitor		added: ACC tetrapeptide substrate	381 µM
CC[C@H](C)[C@H](NC(=O)[C@H](C)NC(=O)[C@H](CCCCN)NC(=O)[C@@H](NC(=O)[C@H](CO)NC(=O)[C@@H](NC(=O)[C@H](C)NC(=O)[C@H](CC(=O)O)NC(=O)[C@@H](NC(=O)[C@H](CCCCN)NC(=O)CNC(=O)[C@@H](N)CCCCN)[C@@H](C)O)[C@@H](C)CC)C(C)C)C(N)=O	Lymphocyte function-associated antigen 3, with CD2 (CD58, Homo sapiens, UniProt P19256)	cell adhesion, inhibitor	Jurkat and HFLS-RA		> 100 µM
Cc1cc(C(=O)N2CCC(O)(c3ccc(Cl)cc3)CC2)c2ccccc2n1	CatSper channel complex	calcium influx, inhibitor, FLIPR	human sperm	added: 3 µM progesterone	> 100 µM
C=CCSc1nc(N)c2c(F)c(C#N)c(F)c(Cl)c2n1	M-phase inducer phosphatase 2 (CDC25B, Homo sapiens, UniProt P30305)	enzyme activity, inhibitor, fluorescence			< 1.6 µM and 1.25 µM
CCC(NC(=O)C(CC(C)C)NC(=O)Nc1ccncc1)C(=O)C(=O)NCc1cc(OC)cc(OC)c1 (centres unmarked)	Calpain-1 catalytic subunit (Capn1, Mus musculus, UniProt O35350)	enzyme activity, inhibitor	mouse pons-cerebellum membranes	added: calcium 20 µM	0.254 µM
CC[C@H](C)[C@@H]1NC(=O)[C@@H]2CCCN2C(=O)[C@@H]2CCCN2C(=O)[C@H]([C@@H](C)CC)NC(=O)[C@H](CO)NC(=O)[C@H](CCCCN)NC(=O)[C@H]([C@@H](C)O)NC(=O)[C@@H]2CSSC[C@H](NC1=O)C(=O)N[C@@H](Cc1ccccc1)C(=O)N1CCC[C@H]1C(=O)N[C@@H](CC(=O)O)C(=O)NCC(=O)N[C@@H](CCCNC(=N)N)C(=O)N2	Lymphocyte function-associated antigen 3 (CD58, Homo sapiens, UniProt P19256)	Jurkat adhesion to HFLS-RA cells	Jurkat, HFLS-RA	1 h	> 100 µM
